Results collected from several papers.
Lines come from different studies, so protocols differ. Numbers after ± are the reported error.

`O=C1NC(=O)c2cc(Nc3ccc(F)cc3)c(Nc3ccc(F)cc3)cc21` has an IC50 of ~10 µM (HeLa expressing Ub(G76V)-GFP; Ub(G76V)-GFP degradation, inhibitor, cycloheximide chase).
`COc1ccc(CCNC2=NS(=O)(=O)c3cc(F)ccc3N2)cc1` has an IC50 of 37.5 µM (MDA-MB-468; cell growth or viability, MTS; 72 h).
For `COc1cc(/C=C/C(O)=C/C(=O)/C=C/c2ccc(OC(=O)CCC(=O)OCc3ccccc3)c(OC)c2)ccc1O`, the IC50 was 8.28 µM (mouse Peritoneal macrophage; IL-6 release, inhibitor, ELISA; LPS-stimulated).
With `CNC(=O)c1cc(Oc2ccc(NC(=O)Nc3ccc(Cl)c(C(F)(F)F)c3)cc2)ccn1` the IC50 was 1.25 ± 0.33 µM (MHCC97H; cell proliferation, MTT; 48 h, miR-140-3p plus mutant PXR).
`CC/C(=C(\c1ccc(O)cc1)c1ccc(OCCN(C)C)cc1)c1ccccc1` gave an IC50 of 7 ± 1 µM (LNCaP (AR-positive); cell growth, inhibitor, sulforhodamine B; 48 h).
The IC50 of `COc1cccc2c1C(=O)c1c(O)c3c(c(O)c1C2=O)C[C@@](O)(C(=O)CO)C[C@@H]3O[C@H]1C[C@H](N)[C@H](O)[C@H](C)O1` is reported as 5 µM (HCT-116, PC-3, MCF7, MDA-MB-231 average; MTT).
`C=CCOc1c(N)cc2c(C)cc(=O)oc2c1C` has an IC50 of 5 µM (PAM212; cell growth; 4 to 5 days, together with: UVA 1.28 J/cm^2).
The IC50 of `O=C(O)c1ccc(-n2nc(-c3ccccc3O)nc2-c2ccccc2O)cc1` is reported as ~180 µM (MRC5; cell growth or viability, resazurin; 72 h).
`CC(C)c1cc(C(=O)N2Cc3ccc(CN4CCN(C)CC4)cc3C2)c(O)cc1O` gave an IC50 of 0.121 µM (human astrocytes; C3 secretion, ELISA; together with: stimulated PBMC supernatant).
`Nc1ccn([C@@H]2O[C@H](CO)[C@@H](O)C2(F)F)c(=O)n1` gave an IC50 of 0.0449 µM (ASPC1, control siRNA; cell viability, CellTiter Aqueous One; 48 h).
The IC50 of `C[C@]1(N)C(=O)c2cc(F)ccc2O[C@@H]1CC(=O)NC12CC3CC(CC(C3)C1)C2` is reported as > 50 µM (DU-145; cell growth or viability, SRB; 96 h).
`N=C(N)c1ccc(-c2ccc(-c3ccc(C(=N)N)cc3)o2)cc1` has an IC50 of 11 µM (MDA-MB-468; cell growth or viability, MTT; 96 h).
With `C[C@]1([N+](=O)[O-])C(=O)c2ccccc2O[C@@H]1CC(=O)NC1CCCCC1` the IC50 was 5.09 µM (DU-145; cell growth or viability, SRB; 96 h).
`COc1ccc(N2CCN(CC(=O)Nc3ccc(C4=NN(C(C)=O)C(c5ccc(Br)cc5)C4)cc3)CC2)cc1` (centres unmarked) has an IC50 of 23 µM (HCT-116, PC-3, MCF7, MDA-MB-231 average; MTT).
For `CC1(C)Cc2c(-c3ccccc3)c(-c3ccc(Cl)cc3)c(CC(=O)O)n2C1`, the IC50 was 158 ± 9.3 µM (HT-29 overexpressing Has2; cell proliferation, MTS).
`CC12CCC(CC1=O)C2(C)C` (centres unmarked) gave an IC50 of 202 µM (GES1; cell growth or viability, SRB; 72 h).
The IC50 of `Cn1cnc2ccc(Nc3c(F)ccc(NS(=O)(=O)N4CC(F)C4)c3Cl)c(Cl)c2c1=O` is reported as ≥ 9.8 µM (BRAF wild-type cell lines; cell signalling, item: phospho-ERK; 1 h).
`CC(=O)O[C@H]1C(=O)[C@@]2(C)[C@H]([C@H](OC(=O)c3ccccc3)[C@]3(O)C[C@H](OC(=O)[C@H](O)[C@@H](NC(=O)c4ccccc4)c4ccccc4)C(C)=C1C3(C)C)[C@]1(OC(C)=O)CO[C@@H]1C[C@@H]2O` has an IC50 of ~0.002 µM (DU-145; cell growth or viability, MTT; 48 h).
`O=S1(=O)N=C(NCc2ccc(SC(F)(F)F)cc2)Nc2ccc(F)cc21` gave an IC50 of 48.7 µM (MDA-MB-468; cell growth or viability, MTS; 72 h).
`COc1cc(-c2nc3ccc(C(=O)Nc4ccccc4)cc3[nH]2)cc(OC)c1OC` has an IC50 of 11.6 µM (MRC5; cell growth or viability, MTT; 72 h).
The IC50 of `COc1ccc(C[C@H](N)C(=O)N[C@H]2[C@@H](O)[C@H](n3cnc4c(N(C)C)ncnc43)O[C@@H]2CO)cc1` is reported as 2.29 µM (3T3 cells; cytotoxicity; primary screen).
With `C=CCc1ccc(O)c(-c2ccc(O)c(CC=C)c2)c1` the IC50 was 3.98 µM (UACC-903; cell proliferation, MTS; 72 h, together with: 10 µM BLM).
For `O=S1(=O)N=C(NCCc2ccccc2)Nc2ccc(F)cc21`, the IC50 was > 50 µM (MDA-MB-468; cell growth or viability, MTS; 72 h).
For `Cc1ccc(NC2=CC(=O)c3sc(C)nc3C2=O)cc1`, the IC50 was 2.8 ± 0.9 µM (HeLa expressing Ub(G76V)-GFP; Ub(G76V)-GFP degradation, inhibitor, cycloheximide chase).
`COc1ccc2ccc(=O)oc2c1` has an IC50 of 50 µM (PAM212; cell growth; 4 to 5 days, together with: UVA 1.28 J/cm^2).
With `CC(/C=C/C(=O)NO)=C\[C@@H](C)C(=O)c1ccc(N(C)C)cc1` the IC50 was 0.014 µM (mouse LDR cells; viability, MTS).
`COc1ccccc1CNC1=NS(=O)(=O)c2cc(Br)ccc2N1` has an IC50 of 13.6 µM (MDA-MB-468; cell growth or viability, MTS; 72 h).
The IC50 of `O=c1[nH]cc(F)c(=O)[nH]1` is reported as 140 µM (GES1; cell growth or viability, SRB; 72 h).
`Cc1cc(C)n(C(N)=S)n1.Cc1ccc(C(C)C)cc1.[Cl][Ru][Cl]` gave an IC50 of 545 µM (HFF-1 foreskin fibroblasts; viability, MTT; 24 h).
For `COc1ccc(N2CCN(CC(=O)Nc3ccc(C4=NN(C(C)=O)C(c5ccco5)C4)cc3)CC2)cc1` (centres unmarked), the IC50 was 6 µM (HCT-116, PC-3, MCF7, MDA-MB-231 average; MTT).
`Nc1nc2[nH]c(CCCc3ccc(C(=O)N[C@@H](CCCC(=O)O)C(=O)O)s3)cc2c(=O)[nH]1` has an IC50 of > 1 µM (KB cells; cell growth; together with: folic acid 200 nM).
With `O=C(O)c1ccc(-n2nc(-c3ccccc3O)nc2-c2ccccc2O)cc1` the IC50 was ≤ 220 µM (MRC5; cell growth, resazurin; 72 h).
`COc1ccc(N2CCN(CC(=O)Nc3ccc(C(=O)C=Cc4ccc(Cl)cc4Cl)cc3)CC2)cc1` gave an IC50 of 100 µM (HCT-116, PC-3, MCF7, MDA-MB-231 average; MTT).
For `COc1ccc2cc(C=C3C(=O)Nc4ccccc43)c(Cl)nc2c1`, the IC50 was > 100 µM (A2780; cell growth or viability, MTT; 72 h).
For `CCCCCCCCNC(=O)C[C@H]1Oc2ccccc2C(=O)[C@]1(C)[N+](=O)[O-]`, the IC50 was 6.81 µM (DU-145; cell growth or viability, SRB; 96 h).
With `COc1ccc(C2CC(c3ccc(NC(=O)CN4CCN(c5ccc(OC)cc5)CC4)cc3)=NN2C(C)=O)cc1` (centres unmarked) the IC50 was 13 µM (HCT-116, PC-3, MCF7, MDA-MB-231 average; MTT).
The IC50 of `COC(=O)c1cc(CN2CCN(C(=N)N)CC2)cc(C(=O)N2CCN(C(=O)c3ccc(C(=N)N)cc3)CC2)c1` is reported as 3.74 µM (mouse F9 cells; CHRM4 and SCN3A gene activation, activator, qRT-PCR, item: CHRM4 and SCN3A mRNA; 24 h).
The IC50 of `C[C@]1([N+](=O)[O-])C(=O)c2ccccc2O[C@@H]1CC(=O)Nc1ccc2[nH]ccc2c1` is reported as 23.9 µM (DU-145; cell growth or viability, SRB; 96 h).
For `S=C([S][Au-][P+](CCC[P+]([Au-][S]C(=S)n1ncc2ccccc21)(c1ccccc1)c1ccccc1)(c1ccccc1)c1ccccc1)n1ncc2ccccc21`, the IC50 was 8.16 ± 4.1 µM (PHA-P stimulated human PBMC; cell growth, MTT; 3 d).
The IC50 of `CC12CC3CC(C)(C1)CC(NC(=O)C[C@H]1Oc4ccccc4C(=O)[C@]1(C)[N+](=O)[O-])(C3)C2` is reported as 5.41 µM (DU-145; cell growth or viability, SRB; 96 h).
For `CCCCc1nc2cc(/C=C/C(=O)NO)ccc2n1CCN(CC)CC`, the IC50 was 2.2 µM (primary AML blasts; cell proliferation, CellTiter-Glo; 48 h, highest individual patient value).
The IC50 of `CC[C@H](C)[C@H](NC(=O)[C@H](C)N)C(=O)N[C@H](C(=O)NCC(=O)N[C@@H](CC(C)C)C(=O)N[C@@H](CCSC)C(=O)N[C@H](C(=O)NCC(=O)NCC(=O)N[C@H](C(=O)N[C@H](C(=O)O)C(C)C)C(C)C)C(C)C)[C@@H](C)CC` is reported as 29 ± 4 µM (differentiated PC-12; Aβ42-induced cytotoxicity, LDH release; 48 h, together with: Aβ42, ratio range 1:0 to 1:10).
`CO[C@H]1/C=C\C=C(/C)C(=O)NC2=CC(=O)C(NCCN(C)C)=C(C[C@@H](C)C[C@H](OC)[C@H](O)[C@@H](C)/C=C(\C)[C@@H]1OC(N)=O)C2=O` gave an IC50 of 0.0031 ± 0.0015 µM (dox-inducible reporter cells; Hsp70-CHIP interaction, NanoBiT luminescence; 6 h; relative to: DMSO).
The IC50 of `NC(=O)CC[C@H](N)C(=O)O` is reported as 162 ± 17 µM (rat hippocampal neurons; calcium-dependent uptake; together with: 5.4 µM 14C-MeAIB).
The IC50 of `CNC(=O)c1cc(Oc2ccc(NC(=O)Nc3ccc(Cl)c(C(F)(F)F)c3)cc2)ccn1` is reported as 1.15 µM (MHCC97H control; cell viability, MTT).
With `C[C@]1([N+](=O)[O-])C(=O)c2ccccc2O[C@@H]1CC(=O)Nc1ncccn1` the IC50 was > 50 µM (DU-145; cell growth or viability, SRB; 96 h).
With `COc1ccc(CNC2=NS(=O)(=O)c3cc(F)ccc3N2)cc1` the IC50 was > 50 µM (MDA-MB-468; cell growth or viability, MTS; 72 h).
For `C[C@@H]1C[C@H]2[C@@H]3CCC4=CC(=O)C=C[C@]4(C)[C@@]3(F)[C@@H](O)C[C@]2(C)[C@@]1(O)C(=O)CO`, the IC50 was 58.5 µM (ReNcell VM, differentiated astrocytic; cell viability, live/dead 3D alginate microarray; 24 h exposure plus 48 h, 6 days differentiation).
`CC(C)=CCc1cc2c(C)cc(=O)oc2c(C)c1O` gave an IC50 of 1 µM (PAM212; cell growth; 4 to 5 days, together with: UVA 1.28 J/cm^2).
`Cc1cc(N2CCc3c(c(C)nn3CC34CCC(NC(=O)[C@@H]5COCCN5)(CC3)CC4)C2)c2cnn(C)c2n1` has an IC50 of 0.001 ± 0.0003 µM (human PBMC; IFN-alpha release; human; together with: SLE patient serum immune complexes).
For `CO[C@H]1C[C@@H]2CC[C@@H](C)[C@@](O)(O2)C(=O)C(=O)N2CCCC[C@H]2C(=O)O[C@H]([C@H](C)C[C@@H]2CC[C@@H](OCCO)[C@H](OC)C2)CC(=O)[C@H](C)/C=C(\C)[C@@H](O)[C@@H](OC)C(=O)[C@H](C)C[C@H](C)/C=C/C=C/C=C/1C`, the IC50 was 0.919 µM (human astrocytes; C3 secretion, ELISA; together with: stimulated PBMC supernatant).
For `C[C@@H]1C[C@H]2[C@@H]3CCC4=CC(=O)C=C[C@]4(C)[C@@]3(F)[C@@H](O)C[C@]2(C)[C@@]1(O)C(=O)CO`, the IC50 was 1.14 ± 0.347 µM (H9 hESC-derived AM microtissues; viability; 3 d; relative to: vehicle).
`CC(=O)Oc1c(CC(Br)CBr)cc2c(C)c(Br)c(=O)oc2c1C` (centres unmarked) gave an IC50 of 48 µM (PAM212; cell growth; 4 to 5 days, together with: UVA 1.28 J/cm^2).

Some of these lines once more:
For `COc1ccc(N2CCN(CC(=O)Nc3ccc(C4=NN(C(C)=O)C(c5ccco5)C4)cc3)CC2)cc1` (centres unmarked), the IC50 was 6 µM (HCT-116, PC-3, MCF7, MDA-MB-231 average; MTT).
`Nc1nc2[nH]c(CCCc3ccc(C(=O)N[C@@H](CCCC(=O)O)C(=O)O)s3)cc2c(=O)[nH]1` has an IC50 of > 1 µM (KB cells; cell growth; together with: folic acid 200 nM).
With `O=C(O)c1ccc(-n2nc(-c3ccccc3O)nc2-c2ccccc2O)cc1` the IC50 was ≤ 220 µM (MRC5; cell growth, resazurin; 72 h).
`COc1ccc(N2CCN(CC(=O)Nc3ccc(C(=O)C=Cc4ccc(Cl)cc4Cl)cc3)CC2)cc1` gave an IC50 of 100 µM (HCT-116, PC-3, MCF7, MDA-MB-231 average; MTT).
For `COc1ccc2cc(C=C3C(=O)Nc4ccccc43)c(Cl)nc2c1`, the IC50 was > 100 µM (A2780; cell growth or viability, MTT; 72 h).
For `CCCCCCCCNC(=O)C[C@H]1Oc2ccccc2C(=O)[C@]1(C)[N+](=O)[O-]`, the IC50 was 6.81 µM (DU-145; cell growth or viability, SRB; 96 h).
